Measurements of several laboratories.
Protocols differ between the studies behind these lines. ± gives the spread as reported.
LGALS3: Galectin-3 (LGALS3, Homo sapiens, UniProt P17931)
Tspo: Translocator protein (Tspo, Rattus norvegicus, UniProt P16257)

O=P(O)(O)O[C@@H]1[C@@H](O)[C@H](O)[C@H](O)[C@H](O)[C@H]1OP(=O)(O)O — ΔpKd (Inositol 1,4,5-trisphosphate-gated calcium channel ITPR1, IP3-binding core (Itpr1, Rattus norvegicus, UniProt P29994, R504Q); binding, 3H-IP3 competition; IP3-binding core, unit not given; baseline: R504Q over wild type): 0.16 ± 0.07
COc1ccc(-c2nc(Nc3nc4ccccc4o3)ncc2C#N)cc1 — maximal response (Metabotropic glutamate receptor 5 (Grm5, Rattus norvegicus, UniProt P31424); calcium mobilization, negative allosteric modulator; together with: glutamate EC80; baseline: maximal glutamate response): 2.1 ± 0.3%
CC(=O)N/C(N)=N/C(=N\S(=O)(=O)c1ccc(C(F)(F)F)cc1)N1C[C@H](c2ccccc2)C(c2ccc(Cl)cc2)=N1 — binding affinity change (Cannabinoid receptor 1 (CNR1, Homo sapiens, UniProt P21554, S123A); S123A mutant vs wild type; concentration not given; baseline: wild type): no effect
Oc1c(C(Nc2nccs2)c2ccccc2OCc2ccccc2)ccc2cccnc12 (stereo not shown) — Hill slope (Genome polyprotein, NS2B-NS3 protease (GP1, West Nile virus, UniProt Q9Q6P4); enzyme activity, inhibitor; 0.1% CHAPS, together with: tetrapeptide substrate): 1.19 ± 0.14
CC1=C(C)C(Oc2c(F)cc3c(C)cc(=O)oc3c2F)OC1=O (racemic) — kcat/K1/2 (D14 (Arabidopsis thaliana, UniProt Q9SQR3); substrate, measured: DiFMU release): 0.025 µM⁻¹ min⁻¹
O=c1c2sccc2n(CC2COc3ccccc3O2)c(=O)n1O (stereo not shown) — residence time (Flap endonuclease 1 (Homo sapiens, UniProt P39748); SPR; Mg2+ bound): 3 min
COc1c(F)c(F)c(C(=O)N[C@H]2[C@@H](O)[C@@H](CO)O[C@@H](S[C@@H]3O[C@H](CO)[C@H](O)[C@H](NC(=O)c4c(F)c(F)c(OC)c(F)c4F)[C@H]3OS(=O)(=O)O)[C@@H]2O)c(F)c1F — ΔH (LGALS3; ITC): -46.8 ± 0.6 kJ/mol
CC(=O)c1ccc(NC(=O)c2nc(-c3ccccc3)n(-c3ccc(C)cc3)n2)cc1 — cell surface receptor level (Cannabinoid receptor 1 (CNR1, Homo sapiens, UniProt P21554); HEK293 expressing CB1-GFP; 10 µM, 6 h; baseline: untreated): increased
C=C1CN(S(=O)(=O)c2ccc(C)cc2)CCCN(Cc2ccccc2)CCCN(S(=O)(=O)c2ccc(C)cc2)C1 — protein level reduction (T-cell surface glycoprotein CD4 (CD4, Homo sapiens, UniProt P01730); degrader, tGFP-P2A-BFP reporter flow cytometry, measured: tGFP reporter fusion; HEK-293T transfected; 10 µM, 24 h): 85%
C=CC[C@H]1OC(=O)CCNC(=O)[C@H](C)N(C)C(=O)[C@H]([C@@H](C)CC)N(C)C(=O)[C@H]([C@@H](C)CC)NC(=O)[C@@H]2[C@@H](C)CCN2C1=O — ΔCp (Platelet-derived growth factor receptor beta, extracellular domain (PDGFRB, Homo sapiens, UniProt P09619); binding, surface plasmon resonance; PDGFR-β extracellular domain; 25 °C): ~1.04 kcal/(K·mol)
O=C1CCc2ccc(OCCCCN3CCN(c4cccc5c4ccn5Cc4ccccc4)CC3)cc2N1 — activity (D(2) dopamine receptor (DRD2, Homo sapiens, UniProt P14416); human cells; concentration not given): inactive
[123I]c1ccc2nc(-c3ccc(-n4ccnn4)nc3)cn2c1 — SUVR (Amyloid-beta precursor protein, amyloid-beta (APP, Homo sapiens, UniProt P05067); SPECT; Alzheimer's disease patients, Parietal cortex; 150 to 240 min; baseline: cerebellum): 1.23 ± 0.26
COc1ccc(-c2cc(C(F)(F)F)nc(SCC(=O)N(C)c3ccccc3)n2)cc1OC — cooperativity factor beta (Glucagon-like peptide 1 receptor (GLP1R, Homo sapiens, UniProt P43220); efficacy cooperativity, allosteric modulator; HEK-293T overexpressing GLP1R; together with: GLP-1(9-36)): 4.5
CCc1cc(C)n2nc(-c3ccc(OCC[18F])cc3)c(CC(=O)N(CC)CC)c2n1 — k4 rate constant (Tspo; two-tissue compartment model; rat C6 glioma model, brain; 60 min dynamic PET): 0.082 ± 0.015 min⁻¹
CC(=O)N[C@H]1[C@@H](O[C@H](C)[C@H](NC(=O)[C@@H](NC(=O)CNC(=O)[C@@H](N)Cc2c[nH]cn2)C(C)C)C(=O)N[C@@H](CO)C(=O)N[C@@H](C)C(=O)N2CCC[C@H]2C(=O)N[C@@H](CC(=O)O)C(N)=O)O[C@H](CO)[C@H](O)[C@@H]1O[C@@H]1O[C@H](CO)[C@H](O)[C@H](O)[C@H]1O — –ΔG (LGALS3; binding, isothermal titration calorimetry; full-length protein): 4.72 kcal/mol
CSCC[C@H](NC(=O)[C@H](CO)NC(=O)[C@@H](NC(=O)[C@H](CCC(N)=O)NC(=O)[C@@H](CCCNC(=N)N)NC(=O)[C@@H](CCCNC(=N)N)NC(=O)[C@@H](CCCCN)NC(=O)[C@@H](CCCNC(=N)N)NC(C)=O)[C@@H](C)O)C(=O)N[C@H](C(=O)N[C@@H](CC(=O)O)C(=O)N[C@@H](Cc1ccccc1)C(=O)N[C@@H](Cc1ccc(O)cc1)C(=O)N[C@@H](Cc1c[nH]cn1)C(=O)N[C@@H](CO)C(=O)N[C@H](CCCCN)C(=O)N[C@H](CCCNC(=N)N)C(=O)N[C@H](CCCNC(=N)N)C(N)=O)[C@@H](C)O — binding stoichiometry (Proliferating cell nuclear antigen (PCNA, Homo sapiens, UniProt P12004); isothermal titration calorimetry; concentration not given, pH 7.4, 25 °C, 100 mM NaCl, together with: p21 peptide): 0.74 ± 0.07
CN(C(=O)Cn1c(=O)oc2ccc(-c3ccc(OCC[18F])cc3)cc21)c1ccccc1 — binding potential (BPND) (Tspo; PET; Sprague-Dawley rat focal ischemia, ipsilateral striatum; dose not given, unit not given; baseline: contralateral side): 2.72 ± 0.27
COC(=O)c1ccc(CNC(=O)[C@@H]2C[C@@H](O)CN2C(=O)Cc2ccccc2)cc1 — binding enthalpy (ΔH) (von Hippel-Lindau disease tumor suppressor, with Elongin B/C (VHL, Homo sapiens, UniProt P40337); isothermal titration calorimetry; concentration not given, 25 °C): -1.89 ± 0.04 kcal/mol
COc1c(F)c(F)c(C(=O)N[C@H]2[C@@H](O)[C@@H](CO)O[C@@H](S[C@@H]3O[C@H](CO)[C@H](O)[C@H](NC(=O)c4c(F)c(F)c(OC)c(F)c4F)[C@H]3O)[C@@H]2O)c(F)c1F — –TΔS (LGALS3; ITC): 18 ± 3 kJ/mol
CNc1ccccc1C(=O)O[C@H]1C[C@H](n2cnc3c(N)ncnc32)O[C@@H]1COP(=O)(O)OP(=O)(O)O — FRET efficiency (Unconventional myosin-Va (Gallus gallus, UniProt Q02440, D297C/G292C/I296C/S293C/V295G); stopped-flow FRET; compound complex; 4 °C, together with: 2 mM MgCl2): 0.96 ± 0.04
O=C(O)[C@H]1O[C@@H](O[C@H]2C=Cc3c(cc4ccc5cccc6c7ccccc7c3c4c56)[C@@H]2O)[C@H](O)[C@@H](O)[C@@H]1O — kcat/Km (UDP-glucuronosyltransferase 1A1 (UGT1A1, Homo sapiens, UniProt P22309); glucuronidation, substrate; UGT-expressing HEK293 homogenate; normalized to UGT expression): 3.1 ± 0.6 mM⁻¹ min⁻¹
O=C(Nc1cc(C(F)(F)F)cc(C(F)(F)F)c1)c1cc(Cl)ccc1O — AR variant protein level (Androgen receptor, AR-V7 isoform (AR, Homo sapiens, UniProt P10275); Western blot; CWR22Rv1; 1 µM, 16 h): inhibited
Cn1c(=O)c2[nH]c(CCc3ccccc3)nc2n(C)c1=O — remaining activity (Androgen receptor (AR, Homo sapiens, UniProt P10275); reporter gene, antagonist, PSA-luciferase; HeLa-A6; 10 µM, 24 h, together with: 5 nM dihydrotestosterone; baseline: maximal activity): 101%
CC(C)CC(NC(=O)C(NC(=O)NC(C(=O)O)C(C)C)C1CCNC(=N)N1)C(=O)NCCCNC(C(=O)O)C(OC1OC(CN)C(O)C1O)C1OC(n2ccc(=O)[nH]c2=O)C(O)C1O (stereo not shown) — binding stoichiometry (Phospho-N-acetylmuramoyl-pentapeptide-transferase (mraY, Aquifex aeolicus, UniProt O66465, Q305A); ITC; concentration not given, Q305A mutant): 0.73 ± 0.08 sites
C#Cc1ccc2c(=O)[nH]nc(Cc3ccc(F)c(C(=O)N4CCN(C(=O)C=C)CC4)c3)c2c1 — saturating concentration (Protein mono-ADP-ribosyltransferase PARP16 (PARP16, Homo sapiens, UniProt Q8N5Y8); covalent labeling, click chemistry in-gel fluorescence; HAP1; 2 h): 300 nM
